Results of several laboratories.
Compare with care: the assays were run in different laboratories.
Target: Interleukin-1 receptor-associated kinase 1 (IRAK1, Homo sapiens, UniProt P51617)

With `O=C=[N][Ru-4]123([n]4c5ccc(O)cc5c5c6c(c7cc(F)c[n+]1c7c54)C(=O)NC6=O)[S+]1CC[S+]2CC[S+]3CC1` (centres unmarked) the remaining activity was 97% (enzyme activity; 100 nM, human enzyme, with: 10 µM ATP; baseline: untreated).
`O=C(Cc1ccc(OCc2ccccc2)cc1)NC1(C(=O)O)CCN(C(=O)c2ccc(-c3cccc(Cl)c3)cc2)CC1`: “activity vs control” 103% (enzyme activity, inhibitor; 10 µM).
The remaining binding of `C=CC(=O)N1CCc2ccc(-n3c(=O)ccc4cnc5ccc(-c6cnn(C)c6)cc5c43)cc21` is reported as 100% (KINOMEscan; 1 µM; baseline: DMSO control).
For `COC(=O)[C@@]1(C)C=C(C(=O)Nc2cccc(C(=O)Nc3ccc(Nc4nccc(-c5cccnc5)n4)c(C)c3)c2)C(=O)CC1`, the remaining binding was 39% (binding, competition with immobilised ligand; 1 µM).
With `Cc1cccc(O[C@H]2CCC[C@@H](C(C)CNCc3ccncc3)C2)c1` (relative stereo) the inhibition was -5% (enzyme activity, inhibitor; 1 µM).
For `C=CC(=O)N1Cc2nc(-c3cc(-c4cc(Cl)cnc4Cl)c(F)cc3F)n(-c3ccncn3)c2C1`, the inhibition was -8.9% (cell-free assay, inhibitor; 1 µM).
`NC(=O)C[C@H]1CCc2sc3ncnc(O[C@H]4CC[C@H](N5CCOCC5)CC4)c3c21` has an inhibition of 68% (enzyme activity, inhibitor; 10 µM).
With `COc1cc(Nc2nc(C)cc(-c3cnn4nc(OC)ccc34)n2)cc(C(F)(F)F)c1` the remaining activity was 91% (inhibitor; 1 µM; baseline: control).
`COc1ccc(NC(=O)Nc2ccc3c(c2)C(=O)N(C(C)CO)CC(C)C(CN(C)Cc2ccc4c(c2)OCO4)O3)cc1` (centres unmarked) gave a remaining activity of 91% (kinase activity, KinaseProfiler; 0.03 µM, species human; baseline: control).
The inhibition of `C=CC(=O)Nc1cccc(-c2cnc3[nH]cc(C(=O)NC(C)(C)C)c3n2)c1` is reported as -3% (enzyme activity, inhibitor; 0.1 µM).
`COc1c(Cl)cccc1Nc1c(-c2ccncc2C#C[C@@]2(C)CCCN2C(=O)/C=C/CN(C)C)[nH]c2c1C(=O)NCC2` gave a remaining binding of 85% (binding, competition with immobilised ligand; 3 µM).
The inhibition of `COc1ccc(O)cc1-c1c[nH]c2ncc(-c3cncc(C(=O)N(C)C)c3)cc12` is reported as 6.66% (binding, competition with immobilised ligand; 0.2 µM).
With `CN1CC[C@@H](COc2cnc(C#N)cc2-c2ccn3nc(NC(=O)C4CC4)cc3c2)C1` the inhibition was 3% (enzyme activity, inhibitor; 1 µM).
The remaining binding of `CNC(=O)C1CCN(c2cc(C)c(F)cc2NC(=O)c2ccc(-c3cc(O)ccc3C)c(C)c2)CC1` is reported as 85% (binding, competition with immobilised ligand; 1 µM).
`CN1CCN(Cc2ccc(-c3ccc(CO[C@H]4CCC[C@@H]4NC(=O)c4cc(-c5cnn(C)c5)cnc4N)cc3)cc2)CC1` has an inhibition of 8% (enzyme activity, inhibitor; 0.1 µM).
`CS(=O)(=O)Nc1cccc(-c2csc3cnc(Nc4ccc(N5CCN(CCCCCOc6cccc7c6C(=O)N(C6CCC(=O)NC6=O)C7=O)CC5)cc4)nc23)c1` (centres unmarked) has an inhibition of 63.6% (probe labelling, inhibitor, KiNativ chemoproteomics; MOLT-4; 1 µM).
With `CCn1cc(C(=O)O)c(=O)c2c(N)c(F)c(NC3CCCCC3)cc21` the inhibition was -4.5% (kinase activity; 0.1 µM, with: ATP at Km).

A few entries again:
The remaining binding of `CNC(=O)C1CCN(c2cc(C)c(F)cc2NC(=O)c2ccc(-c3cc(O)ccc3C)c(C)c2)CC1` is reported as 85% (binding, competition with immobilised ligand; 1 µM).
`CN1CCN(Cc2ccc(-c3ccc(CO[C@H]4CCC[C@@H]4NC(=O)c4cc(-c5cnn(C)c5)cnc4N)cc3)cc2)CC1` has an inhibition of 8% (enzyme activity, inhibitor; 0.1 µM).
